Measurements of several laboratories.
Each numbered part is a random draw from the data of one study; scales do not carry over between parts. Values joined by “and” are separate records of one study, mostly repeats; a detail may differ.
Sequence of UniProt P00519 (whole entry, unmodified, looked up): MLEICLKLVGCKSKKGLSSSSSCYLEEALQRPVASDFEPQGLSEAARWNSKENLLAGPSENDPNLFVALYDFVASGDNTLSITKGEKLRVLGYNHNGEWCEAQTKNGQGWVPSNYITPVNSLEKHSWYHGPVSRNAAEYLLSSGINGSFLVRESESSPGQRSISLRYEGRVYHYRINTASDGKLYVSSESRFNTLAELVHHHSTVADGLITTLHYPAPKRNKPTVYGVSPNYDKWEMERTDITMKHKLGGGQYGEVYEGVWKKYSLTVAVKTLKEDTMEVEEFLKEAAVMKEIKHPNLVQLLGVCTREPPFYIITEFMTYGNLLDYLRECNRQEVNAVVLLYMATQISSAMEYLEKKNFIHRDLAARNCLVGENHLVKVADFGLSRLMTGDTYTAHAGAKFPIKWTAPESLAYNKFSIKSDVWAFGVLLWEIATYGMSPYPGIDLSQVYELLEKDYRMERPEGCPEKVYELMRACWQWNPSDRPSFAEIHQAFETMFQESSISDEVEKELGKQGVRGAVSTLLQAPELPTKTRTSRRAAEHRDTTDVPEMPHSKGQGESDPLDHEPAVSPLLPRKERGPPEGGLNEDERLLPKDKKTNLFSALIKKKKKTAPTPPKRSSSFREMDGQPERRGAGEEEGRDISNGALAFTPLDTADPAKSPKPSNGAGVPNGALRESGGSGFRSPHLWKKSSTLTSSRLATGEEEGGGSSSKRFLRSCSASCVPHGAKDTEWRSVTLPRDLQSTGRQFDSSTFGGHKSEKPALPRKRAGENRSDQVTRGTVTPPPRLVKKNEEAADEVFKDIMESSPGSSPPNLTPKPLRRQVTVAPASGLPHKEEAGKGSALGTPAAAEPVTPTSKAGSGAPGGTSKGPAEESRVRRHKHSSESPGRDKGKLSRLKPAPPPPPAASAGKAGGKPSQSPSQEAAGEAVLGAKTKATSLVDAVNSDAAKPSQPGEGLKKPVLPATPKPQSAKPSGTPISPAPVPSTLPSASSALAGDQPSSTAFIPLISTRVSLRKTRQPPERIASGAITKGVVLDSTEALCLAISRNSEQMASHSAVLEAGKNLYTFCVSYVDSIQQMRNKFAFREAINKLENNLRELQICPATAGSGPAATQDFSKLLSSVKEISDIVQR
Sequence of UniProt Q9HBH9 (whole entry, looked up): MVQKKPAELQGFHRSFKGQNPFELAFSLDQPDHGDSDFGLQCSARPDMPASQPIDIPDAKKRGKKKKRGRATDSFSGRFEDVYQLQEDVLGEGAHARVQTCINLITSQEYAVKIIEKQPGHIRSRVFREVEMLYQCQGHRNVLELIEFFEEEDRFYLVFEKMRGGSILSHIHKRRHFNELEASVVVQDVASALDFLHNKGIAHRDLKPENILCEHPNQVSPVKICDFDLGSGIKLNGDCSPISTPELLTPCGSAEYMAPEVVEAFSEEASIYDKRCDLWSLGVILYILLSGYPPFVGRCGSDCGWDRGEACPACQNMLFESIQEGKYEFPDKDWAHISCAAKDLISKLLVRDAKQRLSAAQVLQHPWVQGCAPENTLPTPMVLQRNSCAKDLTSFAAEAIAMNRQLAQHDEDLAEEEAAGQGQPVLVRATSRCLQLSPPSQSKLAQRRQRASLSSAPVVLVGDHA
Sequence of UniProt Q2M2I8 (whole entry, looked up): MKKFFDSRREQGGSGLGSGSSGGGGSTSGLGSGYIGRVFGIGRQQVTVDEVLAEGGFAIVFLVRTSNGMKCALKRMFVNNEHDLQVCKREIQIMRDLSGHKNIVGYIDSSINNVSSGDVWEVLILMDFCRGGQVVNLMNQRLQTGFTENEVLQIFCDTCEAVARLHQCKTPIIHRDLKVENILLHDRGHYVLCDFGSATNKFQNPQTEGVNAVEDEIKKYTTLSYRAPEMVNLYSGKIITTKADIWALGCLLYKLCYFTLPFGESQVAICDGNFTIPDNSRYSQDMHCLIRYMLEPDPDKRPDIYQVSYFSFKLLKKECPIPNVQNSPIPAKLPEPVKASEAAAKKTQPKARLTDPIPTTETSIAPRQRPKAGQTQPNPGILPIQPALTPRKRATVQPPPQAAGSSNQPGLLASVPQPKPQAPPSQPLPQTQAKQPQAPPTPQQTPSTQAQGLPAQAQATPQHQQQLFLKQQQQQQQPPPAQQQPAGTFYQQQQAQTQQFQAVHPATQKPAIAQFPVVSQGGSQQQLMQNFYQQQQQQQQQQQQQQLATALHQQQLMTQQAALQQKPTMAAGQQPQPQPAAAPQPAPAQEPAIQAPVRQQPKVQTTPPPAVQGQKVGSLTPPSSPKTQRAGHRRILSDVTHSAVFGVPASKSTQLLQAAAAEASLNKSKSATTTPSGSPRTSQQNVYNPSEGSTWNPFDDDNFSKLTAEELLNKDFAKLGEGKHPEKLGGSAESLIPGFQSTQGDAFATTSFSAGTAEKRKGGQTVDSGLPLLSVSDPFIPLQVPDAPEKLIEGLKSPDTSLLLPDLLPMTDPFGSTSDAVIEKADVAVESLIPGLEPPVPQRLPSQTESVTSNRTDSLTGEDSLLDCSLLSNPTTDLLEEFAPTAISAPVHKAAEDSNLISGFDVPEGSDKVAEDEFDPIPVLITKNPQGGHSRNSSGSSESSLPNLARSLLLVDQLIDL
Sequence of UniProt P42681 (whole entry, looked up): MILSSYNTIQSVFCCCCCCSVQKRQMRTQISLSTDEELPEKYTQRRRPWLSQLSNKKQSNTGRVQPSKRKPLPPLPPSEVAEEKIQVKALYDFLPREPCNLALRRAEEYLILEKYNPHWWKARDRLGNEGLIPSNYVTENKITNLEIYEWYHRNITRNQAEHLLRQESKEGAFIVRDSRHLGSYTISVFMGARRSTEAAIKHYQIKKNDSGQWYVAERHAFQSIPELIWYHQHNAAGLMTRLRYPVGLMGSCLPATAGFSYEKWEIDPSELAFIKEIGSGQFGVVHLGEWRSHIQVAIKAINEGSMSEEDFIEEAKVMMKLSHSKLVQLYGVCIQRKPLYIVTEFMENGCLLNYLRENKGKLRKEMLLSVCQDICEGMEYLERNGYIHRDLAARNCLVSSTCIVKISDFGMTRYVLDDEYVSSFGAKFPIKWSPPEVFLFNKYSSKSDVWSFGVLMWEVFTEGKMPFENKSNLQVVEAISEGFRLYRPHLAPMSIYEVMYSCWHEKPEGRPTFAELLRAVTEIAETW
Sequence of UniProt Q6PHR2 (whole entry, looked up): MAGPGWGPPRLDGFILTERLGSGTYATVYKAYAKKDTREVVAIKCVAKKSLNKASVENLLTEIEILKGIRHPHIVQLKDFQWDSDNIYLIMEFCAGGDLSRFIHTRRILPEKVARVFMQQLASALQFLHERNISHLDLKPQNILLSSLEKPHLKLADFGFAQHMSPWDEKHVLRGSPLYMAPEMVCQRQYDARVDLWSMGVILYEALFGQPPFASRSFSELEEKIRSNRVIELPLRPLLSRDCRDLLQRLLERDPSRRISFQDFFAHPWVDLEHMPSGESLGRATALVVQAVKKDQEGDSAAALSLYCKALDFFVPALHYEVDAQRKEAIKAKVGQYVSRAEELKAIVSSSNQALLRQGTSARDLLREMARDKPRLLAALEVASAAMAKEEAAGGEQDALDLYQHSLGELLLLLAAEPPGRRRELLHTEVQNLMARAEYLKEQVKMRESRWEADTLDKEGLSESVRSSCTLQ

Block 1 — Compound: O=C(Nc1ccccc1)Nc1cccc(Oc2ccc3nccn3n2)c1; effect on: binding; tested at: 1 µM
| target | assay | remaining binding [%] |
| --- | --- | --- |
| Mitogen-activated protein kinase 15 (MAPK15, Homo sapiens, UniProt Q8TD08) | competition with immobilised ligand | 100 |
| eIF-2-alpha kinase GCN2 (EIF2AK4, Homo sapiens, UniProt Q9P2K8, S808G) |  | 86 |
| Cyclin-dependent kinase 9 (CDK9, Homo sapiens, UniProt P50750) |  | 100 |
| Cytoplasmic tyrosine-protein kinase BMX (BMX, Homo sapiens, UniProt P51813) | competition with immobilised ligand | 100 |
| Calcium/calmodulin-dependent protein kinase type 1G (CAMK1G, Homo sapiens, UniProt Q96NX5) |  | 100 |
| Serine/threonine-protein kinase 17A (STK17A, Homo sapiens, UniProt Q9UEE5) |  | 100 |
| Myotonin-protein kinase (DMPK, Homo sapiens, UniProt Q09013) | competition with immobilised ligand | 96 |
| Tyrosine-protein kinase TXK (TXK, Homo sapiens, UniProt P42681) | competition with immobilised ligand | 100 |
| Uncharacterized serine/threonine-protein kinase SBK3 (SBK3, Homo sapiens, UniProt P0C264) |  | 60 |
| Serine/threonine-protein kinase SIK1 (SIK1, Homo sapiens, UniProt P57059) | competition with immobilised ligand | 100 |
| MAP kinase-interacting serine/threonine-protein kinase 2 (MKNK2, Homo sapiens, UniProt Q9HBH9) | competition with immobilised ligand | 100 |
| Phosphatidylinositol 4,5-bisphosphate 3-kinase catalytic subunit alpha isoform (PIK3CA, Homo sapiens, UniProt P42336, M1043I) |  | 100 |
| AP2-associated protein kinase 1 (AAK1, Homo sapiens, UniProt Q2M2I8) | competition with immobilised ligand | 100 |
| Receptor tyrosine-protein kinase erbB-3 (ERBB3, Homo sapiens, UniProt P21860) | competition with immobilised ligand | 47 |
| Cyclin-dependent kinase 8 (CDK8, Homo sapiens, UniProt P49336) | competition with immobilised ligand | 24 |
| Serine/threonine-protein kinase LATS2 (LATS2, Homo sapiens, UniProt Q9NRM7) |  | 70 |
| Tyrosine-protein kinase ABL1 (ABL1, Homo sapiens, UniProt P00519, Y253F) |  | 100 |
| Calcium/calmodulin-dependent protein kinase type II subunit alpha (CAMK2A, Homo sapiens, UniProt Q9UQM7) |  | 100 |
| Mast/stem cell growth factor receptor Kit (KIT, Homo sapiens, UniProt P10721) | competition with immobilised ligand | 0 |
| Activated CDC42 kinase 1 (TNK2, Homo sapiens, UniProt Q07912) | competition with immobilised ligand | 100 |

Block 2 — effect on: cell growth or viability; technique: ATP luminescence; time: 6 days
SMILES: Cc1ncsc1-c1ccc(C(CO)NC(=O)C2CC(O)CN2C(=O)C(C(C)C)n2cc(-c3ccc(COc4c(-c5c(C)c(F)cc6[nH]ncc56)c(C5CC5)cc5c(N6CC7CC6CN7)nc(OC6CCOCC6)nc45)cc3)nn2)cc1 (stereo not shown)
| cell line | conditions | viability |
| --- | --- | --- |
| PaTu 8902 | 0.3 µM | 73.2% and 72.9% and 71.9% and 75.5% |
| HT-29 | 10 nM | 94.4% and 110% and 82.6% and 99.4% |
| GP2d | 10 µM | 23.1% and 15.9% and 14.5% and 18.6% |
| GP2d | 0.3 µM | 25.6% and 26.1% and 28.1% and 21.9% |
| SK-CO-1 | 0.1 µM | 54.6% and 70.3% and 56.8% and 74% |
| NCI-H358 | 0.3 µM | 15.3% and 17.4% and 11.9% and 12.9% |
| LCLC-97TM1 | 3 nM | 94.8% and 107% and 105% and 113% |
| BXPC-3 | 10 µM | 108% and 116% and 79% and 87.2% |
| SK-CO-1 | 3 nM | 104% and 116% and 99.6% and 100% |
| BXPC-3 | 0.3 µM | 111% and 88.8% and 94.8% and 71.8% |

Block 3 — effect on: thermal unfolding; technique: differential scanning fluorimetry; tested at: 5.5 µM; reading: higher = more unfolded
Compound: C[C@@H]1CN(c2ccc(-c3cc(C(=O)NCCOCCOCCOCCOCCNC(=O)/C=C/c4[nH]cc(C(=O)N[C@@H](CC(N)=O)c5ccc(F)c(Cl)c5)c4-c4ccc(Cl)cc4F)ccc3F)cc2NC(=O)c2c[nH]c(=O)cc2C(F)(F)F)C[C@H](C)N1C
DCAF1: DDB1- and CUL4-associated factor 1 (DCAF1, Homo sapiens, UniProt Q9Y4B6)
Sequence of UniProt Q9Y4B6 (whole entry, looked up): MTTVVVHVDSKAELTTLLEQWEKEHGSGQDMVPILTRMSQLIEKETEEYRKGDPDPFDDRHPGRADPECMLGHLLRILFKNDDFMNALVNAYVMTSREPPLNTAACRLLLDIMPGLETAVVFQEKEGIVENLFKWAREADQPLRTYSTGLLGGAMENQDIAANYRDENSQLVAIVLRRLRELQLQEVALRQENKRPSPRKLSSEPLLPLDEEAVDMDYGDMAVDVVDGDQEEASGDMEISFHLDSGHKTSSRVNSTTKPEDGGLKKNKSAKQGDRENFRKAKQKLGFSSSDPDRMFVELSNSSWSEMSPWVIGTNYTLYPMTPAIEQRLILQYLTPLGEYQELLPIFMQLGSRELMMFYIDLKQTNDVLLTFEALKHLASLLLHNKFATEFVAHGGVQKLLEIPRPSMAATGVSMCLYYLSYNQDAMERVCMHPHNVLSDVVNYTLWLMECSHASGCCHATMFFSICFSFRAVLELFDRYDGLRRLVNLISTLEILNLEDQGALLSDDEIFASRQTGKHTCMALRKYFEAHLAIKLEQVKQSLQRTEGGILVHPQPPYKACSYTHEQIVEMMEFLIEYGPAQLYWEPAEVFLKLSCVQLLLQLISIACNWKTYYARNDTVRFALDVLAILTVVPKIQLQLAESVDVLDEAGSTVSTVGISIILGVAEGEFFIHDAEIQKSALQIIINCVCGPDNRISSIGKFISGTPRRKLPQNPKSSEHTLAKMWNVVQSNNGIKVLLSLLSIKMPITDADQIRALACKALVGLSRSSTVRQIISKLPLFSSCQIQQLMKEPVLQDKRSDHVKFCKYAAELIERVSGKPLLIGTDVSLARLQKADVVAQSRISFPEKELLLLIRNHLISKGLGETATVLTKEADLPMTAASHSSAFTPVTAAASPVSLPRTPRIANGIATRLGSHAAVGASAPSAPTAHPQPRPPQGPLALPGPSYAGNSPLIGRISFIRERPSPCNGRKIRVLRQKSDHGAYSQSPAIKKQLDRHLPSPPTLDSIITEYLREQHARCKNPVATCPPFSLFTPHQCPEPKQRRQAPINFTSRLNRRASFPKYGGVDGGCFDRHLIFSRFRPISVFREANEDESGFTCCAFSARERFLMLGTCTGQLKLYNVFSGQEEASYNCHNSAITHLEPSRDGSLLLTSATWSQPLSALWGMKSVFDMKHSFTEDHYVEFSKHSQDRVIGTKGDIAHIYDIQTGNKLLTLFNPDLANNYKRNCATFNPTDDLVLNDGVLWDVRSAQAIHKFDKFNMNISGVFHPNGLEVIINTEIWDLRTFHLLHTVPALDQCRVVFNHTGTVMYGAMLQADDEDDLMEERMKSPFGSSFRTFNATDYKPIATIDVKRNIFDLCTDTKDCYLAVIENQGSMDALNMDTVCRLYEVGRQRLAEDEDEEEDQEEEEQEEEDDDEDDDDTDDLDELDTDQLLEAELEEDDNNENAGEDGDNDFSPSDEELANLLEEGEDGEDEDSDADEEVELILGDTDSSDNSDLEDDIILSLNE
WDR5: WD repeat-containing protein 5 (WDR5, Homo sapiens, UniProt P61964)
| target | conditions | SYPRO Orange fluorescence [a.u.] |
| --- | --- | --- |
| DCAF1 | 28.4 °C | 9100 |
| DCAF1 | 42.8 °C | 12400 |
| DCAF1 | 63.61 °C | 55800 |
| WDR5 | 66.01 °C | 14100 |
| WDR5 | 48.8 °C | 16000 |
| WDR5 | 44.6 °C | 15200 |
| WDR5 | 51.2 °C | 16700 |
| DCAF1 | 36.2 °C | 10500 |
| DCAF1 | 47.2 °C | 14000 |
| DCAF1 | 42 °C | 12200 |
| DCAF1 | 64.61 °C | 58200 |

Block 4 — effect on: binding; technique: competition with immobilised ligand; tested at: 1 µM
Compound: COc1cc(-c2nc3ccc(C(=O)NCCCN4CCN(c5cccc(C)c5C)CC4)cc3n2C2CCC2)cc(OC)c1OC
| target | remaining binding [%] |
| --- | --- |
| Mitogen-activated protein kinase kinase kinase kinase 2 (MAP4K2, Homo sapiens, UniProt Q12851) | 72 |
| Serine/threonine-protein kinase Nek5 (NEK5, Homo sapiens, UniProt Q6P3R8) | 100 |
| Serine/threonine-protein kinase haspin (HASPIN, Homo sapiens, UniProt Q8TF76) | 72 |
| Phosphatidylinositol 4-phosphate 5-kinase type-1 alpha (PIP5K1A, Homo sapiens, UniProt Q99755) | 88 |
| Activin receptor type-2A (ACVR2A, Homo sapiens, UniProt P27037) | 96 |
| Tyrosine-protein kinase ABL1, phosphorylated (ABL1, Homo sapiens, UniProt P00519) | 74 |
| Phosphatidylinositol 3-kinase C2 domain-containing subunit gamma (PIK3C2G, Homo sapiens, UniProt O75747) | 46 |
| ALK tyrosine kinase receptor (ALK, Homo sapiens, UniProt Q9UM73, L1196M) | 100 |
| MAP kinase-interacting serine/threonine-protein kinase 2 (MKNK2, Homo sapiens, UniProt Q9HBH9) | 98 |
| Ankyrin repeat and protein kinase domain-containing protein 1 (ANKK1, Homo sapiens, UniProt Q8NFD2) | 72 |
| Serine/threonine-protein kinase PLK4 (PLK4, Homo sapiens, UniProt O00444) | 91 |
| Myosin light chain kinase 2, skeletal/cardiac muscle (MYLK2, Homo sapiens, UniProt Q9H1R3) | 82 |
| Serine/threonine-protein kinase ULK3 (ULK3, Homo sapiens, UniProt Q6PHR2) | 97 |
| Serine/threonine-protein kinase TAO1 (TAOK1, Homo sapiens, UniProt Q7L7X3) | 92 |
| Mitogen-activated protein kinase kinase kinase kinase 4 (MAP4K4, Homo sapiens, UniProt O95819) | 94 |
| Serine/threonine-protein kinase 25 (STK25, Homo sapiens, UniProt O00506) | 87 |
| RAC-gamma serine/threonine-protein kinase (AKT3, Homo sapiens, UniProt Q9Y243) | 100 |
| Serine/threonine-protein kinase 33 (STK33, Homo sapiens, UniProt Q9BYT3) | 83 |
| Tyrosine-protein kinase Lck (LCK, Homo sapiens, UniProt P06239) | 34 |
| Epidermal growth factor receptor (EGFR, Homo sapiens, UniProt P00533, del747-752/P753S) | 76 |
